{"data": "Assay results collected from several papers", "note": "Each numbered part is a random draw from the data of one study; scales do not carry over between parts. Several values in a cell are separate wells, animals, samples, runs or records.", "chain of UniProt P25103 (whole entry, looked up)": "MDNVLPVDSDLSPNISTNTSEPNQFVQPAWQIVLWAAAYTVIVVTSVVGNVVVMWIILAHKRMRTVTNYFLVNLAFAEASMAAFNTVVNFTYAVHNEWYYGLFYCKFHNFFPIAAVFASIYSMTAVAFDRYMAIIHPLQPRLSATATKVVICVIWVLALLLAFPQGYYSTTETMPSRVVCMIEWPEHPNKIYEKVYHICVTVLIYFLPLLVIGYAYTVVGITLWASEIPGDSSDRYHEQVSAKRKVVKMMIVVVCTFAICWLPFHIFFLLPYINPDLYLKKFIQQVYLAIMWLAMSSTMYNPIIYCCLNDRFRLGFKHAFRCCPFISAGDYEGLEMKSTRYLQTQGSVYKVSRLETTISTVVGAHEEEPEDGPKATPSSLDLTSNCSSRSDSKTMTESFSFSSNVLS", "chain of UniProt Q8TDX7 (whole entry, looked up)": "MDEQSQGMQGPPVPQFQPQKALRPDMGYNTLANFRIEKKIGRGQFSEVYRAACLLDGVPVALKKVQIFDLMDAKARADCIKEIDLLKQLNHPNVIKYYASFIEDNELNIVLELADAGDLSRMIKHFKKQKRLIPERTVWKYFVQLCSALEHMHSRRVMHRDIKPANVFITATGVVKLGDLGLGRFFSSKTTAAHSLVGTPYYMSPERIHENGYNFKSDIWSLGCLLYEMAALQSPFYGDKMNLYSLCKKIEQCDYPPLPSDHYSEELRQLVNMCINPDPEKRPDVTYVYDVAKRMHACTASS", "chain of UniProt O43293 (whole entry, looked up)": "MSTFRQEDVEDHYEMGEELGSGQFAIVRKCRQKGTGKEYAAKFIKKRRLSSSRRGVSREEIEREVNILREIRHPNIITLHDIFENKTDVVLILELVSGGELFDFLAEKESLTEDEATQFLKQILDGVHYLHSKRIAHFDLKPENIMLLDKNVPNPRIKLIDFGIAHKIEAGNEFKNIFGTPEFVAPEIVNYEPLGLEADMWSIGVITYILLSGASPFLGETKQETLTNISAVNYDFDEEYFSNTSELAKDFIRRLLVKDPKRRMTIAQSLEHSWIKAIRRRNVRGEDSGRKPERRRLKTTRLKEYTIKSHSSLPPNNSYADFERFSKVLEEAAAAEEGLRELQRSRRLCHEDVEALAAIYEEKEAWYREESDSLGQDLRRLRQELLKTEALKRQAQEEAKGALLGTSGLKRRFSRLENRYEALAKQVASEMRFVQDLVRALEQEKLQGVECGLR", "chain of UniProt P47898 (whole entry, looked up)": "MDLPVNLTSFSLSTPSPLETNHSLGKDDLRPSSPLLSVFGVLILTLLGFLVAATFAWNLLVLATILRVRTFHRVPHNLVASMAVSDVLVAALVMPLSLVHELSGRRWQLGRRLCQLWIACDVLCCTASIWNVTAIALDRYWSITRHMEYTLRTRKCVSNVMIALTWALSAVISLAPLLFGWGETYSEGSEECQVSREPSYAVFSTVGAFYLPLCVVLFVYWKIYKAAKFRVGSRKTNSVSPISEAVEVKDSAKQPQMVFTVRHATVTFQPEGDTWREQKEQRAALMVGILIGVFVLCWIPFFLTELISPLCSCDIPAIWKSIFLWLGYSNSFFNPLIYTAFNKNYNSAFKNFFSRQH", "chain of UniProt P10721 (whole entry, unmodified, looked up)": "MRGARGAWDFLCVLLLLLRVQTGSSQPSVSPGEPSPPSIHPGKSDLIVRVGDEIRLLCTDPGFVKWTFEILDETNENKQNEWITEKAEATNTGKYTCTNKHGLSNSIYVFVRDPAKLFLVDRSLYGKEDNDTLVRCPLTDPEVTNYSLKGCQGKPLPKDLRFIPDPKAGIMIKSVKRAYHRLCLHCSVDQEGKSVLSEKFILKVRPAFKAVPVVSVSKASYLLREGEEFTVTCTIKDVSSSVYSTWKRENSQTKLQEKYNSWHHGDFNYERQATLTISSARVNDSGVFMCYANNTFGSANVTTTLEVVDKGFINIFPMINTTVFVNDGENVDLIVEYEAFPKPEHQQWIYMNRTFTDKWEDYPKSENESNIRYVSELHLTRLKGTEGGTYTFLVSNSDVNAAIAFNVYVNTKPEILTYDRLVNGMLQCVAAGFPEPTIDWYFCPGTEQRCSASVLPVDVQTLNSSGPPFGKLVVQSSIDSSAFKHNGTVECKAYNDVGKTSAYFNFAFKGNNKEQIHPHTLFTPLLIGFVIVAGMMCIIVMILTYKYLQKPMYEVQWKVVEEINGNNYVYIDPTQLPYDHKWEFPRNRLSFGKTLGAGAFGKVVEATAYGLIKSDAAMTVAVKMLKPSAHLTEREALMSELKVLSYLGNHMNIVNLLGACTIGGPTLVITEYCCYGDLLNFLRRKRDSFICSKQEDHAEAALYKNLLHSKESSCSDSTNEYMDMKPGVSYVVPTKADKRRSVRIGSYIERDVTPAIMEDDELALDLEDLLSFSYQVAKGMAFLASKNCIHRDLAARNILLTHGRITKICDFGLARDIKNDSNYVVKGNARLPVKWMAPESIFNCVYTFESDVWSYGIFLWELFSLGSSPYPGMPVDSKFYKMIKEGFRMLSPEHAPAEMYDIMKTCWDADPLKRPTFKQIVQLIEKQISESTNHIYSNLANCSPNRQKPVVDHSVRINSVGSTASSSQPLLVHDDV", "chain of UniProt Q9UJ42 (whole entry, looked up)": "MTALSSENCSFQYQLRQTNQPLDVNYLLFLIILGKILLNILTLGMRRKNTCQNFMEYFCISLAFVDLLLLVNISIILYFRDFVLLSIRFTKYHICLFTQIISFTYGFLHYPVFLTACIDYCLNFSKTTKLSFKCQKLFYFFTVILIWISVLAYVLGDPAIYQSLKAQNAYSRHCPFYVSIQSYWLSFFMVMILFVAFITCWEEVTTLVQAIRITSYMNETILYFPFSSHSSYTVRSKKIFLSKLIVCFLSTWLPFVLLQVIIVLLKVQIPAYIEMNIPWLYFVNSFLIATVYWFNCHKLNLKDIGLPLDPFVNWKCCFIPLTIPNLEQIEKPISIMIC", "chain of UniProt P32239 (whole entry, looked up)": "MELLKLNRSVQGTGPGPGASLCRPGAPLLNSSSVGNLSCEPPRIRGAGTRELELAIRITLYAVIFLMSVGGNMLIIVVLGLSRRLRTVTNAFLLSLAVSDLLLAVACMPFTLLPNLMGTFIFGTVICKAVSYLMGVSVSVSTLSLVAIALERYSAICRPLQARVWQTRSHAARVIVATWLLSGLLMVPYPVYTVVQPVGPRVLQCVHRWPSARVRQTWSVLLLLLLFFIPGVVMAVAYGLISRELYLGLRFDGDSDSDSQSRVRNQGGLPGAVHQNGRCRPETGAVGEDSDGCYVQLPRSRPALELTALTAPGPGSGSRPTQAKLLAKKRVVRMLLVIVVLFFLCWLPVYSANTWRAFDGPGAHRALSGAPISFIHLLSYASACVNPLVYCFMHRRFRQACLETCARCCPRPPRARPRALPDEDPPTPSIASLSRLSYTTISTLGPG", "chain of UniProt Q9NQ84 (whole entry, looked up)": "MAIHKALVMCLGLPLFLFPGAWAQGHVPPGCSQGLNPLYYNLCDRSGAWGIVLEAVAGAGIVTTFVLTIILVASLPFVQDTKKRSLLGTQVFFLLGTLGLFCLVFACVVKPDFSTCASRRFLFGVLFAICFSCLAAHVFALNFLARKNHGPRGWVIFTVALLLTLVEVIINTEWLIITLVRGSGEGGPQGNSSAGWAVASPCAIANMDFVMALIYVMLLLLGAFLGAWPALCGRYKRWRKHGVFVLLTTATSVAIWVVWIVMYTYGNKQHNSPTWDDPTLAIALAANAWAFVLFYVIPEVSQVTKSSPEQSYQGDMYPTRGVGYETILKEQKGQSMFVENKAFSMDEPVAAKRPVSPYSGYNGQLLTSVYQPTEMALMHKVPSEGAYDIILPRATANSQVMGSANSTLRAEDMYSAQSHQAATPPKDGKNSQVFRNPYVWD", "chain of UniProt P32241 (whole entry, looked up)": "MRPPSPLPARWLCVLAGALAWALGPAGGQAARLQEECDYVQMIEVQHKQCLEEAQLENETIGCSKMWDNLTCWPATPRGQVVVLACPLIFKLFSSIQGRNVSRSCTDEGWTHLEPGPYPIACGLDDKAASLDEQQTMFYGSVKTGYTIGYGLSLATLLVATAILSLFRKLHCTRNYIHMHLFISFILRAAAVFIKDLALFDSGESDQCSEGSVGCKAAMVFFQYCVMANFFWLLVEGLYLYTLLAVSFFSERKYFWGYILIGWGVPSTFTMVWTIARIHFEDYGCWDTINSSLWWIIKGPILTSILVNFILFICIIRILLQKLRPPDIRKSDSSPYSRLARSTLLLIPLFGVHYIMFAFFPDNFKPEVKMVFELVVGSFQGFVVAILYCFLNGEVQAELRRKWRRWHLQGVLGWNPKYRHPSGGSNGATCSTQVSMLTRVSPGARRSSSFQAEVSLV"}
{"data": "Series 1", "Compound": "CC(C)CN(C)c1nc(N)c(C(=O)N=C(N)N)nc1Cl", "observed": "β-arrestin recruitment", "mode": "agonist", "technique": "PRESTO-Tango", "concentration": "10 µM", "reference": "untreated"}
{"target": "GPRC5C (Homo sapiens, UniProt Q9NQ84)", "fold over basal": 0.67}
{"target": "VIPR1 (Homo sapiens, UniProt P32241)", "fold over basal": "0.52 fold"}
{"target": "HTR5A (Homo sapiens, UniProt P47898)", "fold over basal": 1.2}
{"target": "Probable G-protein coupled receptor 160 (GPR160, Homo sapiens, UniProt Q9UJ42)", "fold over basal": 0.76}
{"target": "CCR1 (Homo sapiens, UniProt P32246)", "fold over basal": 1.07}
{"target": "TACR1 (Homo sapiens, UniProt P25103)", "fold over basal": "1.05 fold"}
{"target": "HTR1B (Homo sapiens, UniProt P28222)", "fold over basal": 1.17}
{"target": "GRPR (Homo sapiens, UniProt P30550)", "fold over basal": "0.79 fold"}
{"target": "CCKBR (Homo sapiens, UniProt P32239)", "fold over basal": 0.97}
{"target": "DRD2 (Homo sapiens, UniProt P14416)", "fold over basal": 0.56}
{"target": "Relaxin receptor 2 (RXFP2, Homo sapiens, UniProt Q8WXD0)", "fold over basal": 0.47}
{"data": "Series 2", "SMILES": "COc1ccc2c(O[C@@H]3C[C@H]4C(=O)N[C@]5(C(=O)O)CC5/C=C\\CCCCC[C@H](NC(=O)OC5CCCC5)C(=O)N4C3)cc(-c3csc(NC(=O)C(C)C)n3)nc2c1C (stereo partly drawn)", "observed": "cell-free assay", "technique": "competition with immobilised ligand", "concentration": "1 µM"}
{"target": "DAPK3 (Homo sapiens, UniProt O43293)", "remaining binding [%]": 100}
{"target": "FER (Homo sapiens, UniProt P16591)", "remaining binding [%]": 100}
{"target": "IRAK3 (Homo sapiens, UniProt Q9Y616)", "remaining binding [%]": 97}
{"target": "Tyrosine-protein kinase JAK3, JH1 (JAK3, Homo sapiens, UniProt P52333)", "remaining binding [%]": 88}
{"target": "Tyrosine-protein kinase ABL1, phosphorylated (ABL1, Homo sapiens, UniProt P00519, Y253F)", "remaining binding [%]": 87}
{"target": "LTK (Homo sapiens, UniProt P29376)", "remaining binding [%]": 100}
{"target": "NEK7 (Homo sapiens, UniProt Q8TDX7)", "remaining binding [%]": 100}
{"target": "DCLK2 (Homo sapiens, UniProt Q8N568)", "remaining binding [%]": 95}
{"target": "ROCK2 (Homo sapiens, UniProt O75116)", "remaining binding [%]": 95}
{"target": "Ribosomal protein S6 kinase alpha-3, C-terminal kinase domain (RPS6KA3, Homo sapiens, UniProt P51812)", "remaining binding [%]": 82}
{"target": "EIF2AK2 (Homo sapiens, UniProt P19525)", "remaining binding [%]": 100}
{"target": "KIT (Homo sapiens, UniProt P10721, D816H)", "remaining binding [%]": 86}
{"target": "FLT3 (Homo sapiens, UniProt P36888, D835Y)", "remaining binding [%]": 87}
{"target": "PIK3C3 (Homo sapiens, UniProt Q8NEB9)", "remaining binding [%]": 100}
{"target": "LYN (Homo sapiens, UniProt P07948)", "remaining binding [%]": 94}
{"data": "Series 3", "cell line": "HaCaT", "concentration": "100 µM", "time": "18 h"}
{"Compound": "CCN(CC)CCNC(=O)c1c(C)[nH]c(/C=C2\\C(=O)Nc3ccc(F)cc32)c1C", "viability": "50.9% and 24.6%"}
{"Compound": "N#Cc1cc(-c2n[nH]c(-c3ccncc3)n2)ccn1", "viability": "55.5%"}
{"Compound": "O=c1[nH]c(=O)n([C@H]2C[C@H](O)[C@@H](CO)O2)cc1F", "viability": "45.5%"}
{"Compound": "CN1CCN(CCCN2c3ccccc3Sc3ccc(C(F)(F)F)cc32)CC1", "viability": "17.1%"}
{"Compound": "O=S(=O)(O)CCSSCCS(=O)(=O)O", "viability": "95.7%"}
{"Compound": "CCCCCCCC(=O)N[C@H](CN1CCCC1)[C@H](O)c1ccc2c(c1)OCCO2", "viability": "91.8%"}
{"Compound": "COC(=O)Nc1nc2cc(C(=O)c3ccc(F)cc3)ccc2[nH]1", "viability": "60.1%"}
{"Compound": "O=P(O)(O)C(O)(Cn1ccnc1)P(=O)(O)O", "viability": "111%"}
{"Compound": "Cc1cn[nH]c1", "viability": "94.8%"}
{"data": "Series 4", "target": "Calcium/calmodulin-dependent protein kinase type II subunit alpha (CAMK2A, Homo sapiens, UniProt Q9UQM7)", "observed": "enzyme activity", "mode": "inhibitor", "concentration": "10 µM", "chain of UniProt Q9UQM7 (whole entry, looked up)": "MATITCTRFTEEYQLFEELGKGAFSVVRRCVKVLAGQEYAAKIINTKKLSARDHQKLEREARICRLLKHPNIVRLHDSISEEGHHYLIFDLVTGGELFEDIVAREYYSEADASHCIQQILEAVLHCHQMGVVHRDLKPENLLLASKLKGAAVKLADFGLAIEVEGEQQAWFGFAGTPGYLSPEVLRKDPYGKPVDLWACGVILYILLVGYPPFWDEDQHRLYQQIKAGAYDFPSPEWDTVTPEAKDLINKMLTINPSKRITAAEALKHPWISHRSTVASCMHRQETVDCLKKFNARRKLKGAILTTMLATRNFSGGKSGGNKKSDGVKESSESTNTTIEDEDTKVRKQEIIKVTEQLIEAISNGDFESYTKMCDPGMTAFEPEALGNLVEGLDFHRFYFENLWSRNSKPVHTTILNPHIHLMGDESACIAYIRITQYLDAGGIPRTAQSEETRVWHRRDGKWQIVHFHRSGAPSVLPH"}
{"SMILES": "CCCCCCC(O)C(=O)O (stereo not drawn)", "inhibition [%]": 12}
{"SMILES": "C=CC[C@@H]1/C=C(\\C)C[C@H](C)C[C@H](OC)[C@H]2O[C@@](O)(C(=O)C(=O)N3CCCC[C@H]3C(=O)O[C@H](/C(C)=C/[C@@H]3CC[C@@H](O)[C@H](OC)C3)[C@H](C)[C@@H](O)CC1=O)[C@H](C)C[C@@H]2OC", "inhibition [%]": 5}
{"SMILES": "COc1ccc(-c2cc(=O)c3ccccc3o2)cc1OC", "inhibition [%]": -38}
{"SMILES": "C/C=C/c1cc(OC)c2c(c1)[C@@H](C)[C@H](c1ccc3c(c1)OCO3)O2", "inhibition [%]": 14}
{"SMILES": "CCCCCCCCCCCCCCCCCCCO", "inhibition [%]": -42}
{"SMILES": "C[C@@H]1C(=O)O[C@H](C)[C@H]1C[C@@H](O)[C@](C)(O)[C@H]1CC[C@@]2(O)C3=CC(=O)[C@@H]4C[C@@H](O)[C@@H](O)C[C@]4(C)[C@H]3CC[C@]12C", "inhibition [%]": 42}
{"SMILES": "OC[C@H]1O[C@@](CO)(O[C@H]2O[C@H](CO)[C@@H](O)[C@H](O)[C@H]2O)[C@@H](O[C@H]2O[C@H](CO)[C@@H](O)[C@H](O)[C@H]2O)[C@@H]1O", "inhibition [%]": -10}
{"SMILES": "C=C(C(=O)c1c(OC)cc2c(c1OC)OCO2)c1ccccc1O", "inhibition [%]": -33}
{"SMILES": "N=C(N)c1ccc(OCCCCCOc2ccc(C(=N)N)cc2)cc1", "inhibition [%]": -6}
{"SMILES": "CC(C)=CCC[C@](C)(O)[C@H]1CC[C@]2(C)[C@@H]1[C@H](O)C[C@@H]1[C@@]3(C)CC[C@H](O)C(C)(C)[C@@H]3[C@@H](O[C@@H]3O[C@H](CO)[C@@H](O)[C@H](O)[C@H]3O[C@@H]3O[C@@H](C)[C@H](O)[C@@H](O)[C@H]3O)C[C@]12C", "inhibition [%]": -31}
{"note": "Some of these lines once more (series 1):"}
{"target": "HTR5A (Homo sapiens, UniProt P47898)", "fold over basal": 1.2}
{"target": "TACR1 (Homo sapiens, UniProt P25103)", "fold over basal": "1.05 fold"}
{"target": "DRD2 (Homo sapiens, UniProt P14416)", "fold over basal": 0.56}
{"target": "GRPR (Homo sapiens, UniProt P30550)", "fold over basal": "0.79 fold"}
